Measurements of several laboratories.
Parts stem from different laboratories: compare values within a part only.
Chain of UniProt P08631 (whole entry, looked up): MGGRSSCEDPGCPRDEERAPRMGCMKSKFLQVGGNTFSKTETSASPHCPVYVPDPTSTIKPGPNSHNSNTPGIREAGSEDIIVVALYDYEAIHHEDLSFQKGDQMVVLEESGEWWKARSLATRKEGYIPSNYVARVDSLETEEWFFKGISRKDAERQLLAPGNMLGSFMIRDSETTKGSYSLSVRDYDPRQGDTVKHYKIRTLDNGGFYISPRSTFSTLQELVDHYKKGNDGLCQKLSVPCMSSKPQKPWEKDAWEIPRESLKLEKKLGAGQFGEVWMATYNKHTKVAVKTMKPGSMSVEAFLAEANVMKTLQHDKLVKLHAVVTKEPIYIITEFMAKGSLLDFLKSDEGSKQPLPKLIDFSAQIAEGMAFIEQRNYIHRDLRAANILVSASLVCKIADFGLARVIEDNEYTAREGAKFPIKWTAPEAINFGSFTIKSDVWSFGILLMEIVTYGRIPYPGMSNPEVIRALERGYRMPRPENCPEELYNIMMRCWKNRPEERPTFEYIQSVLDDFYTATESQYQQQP
Chain of UniProt P53355 (whole entry, looked up): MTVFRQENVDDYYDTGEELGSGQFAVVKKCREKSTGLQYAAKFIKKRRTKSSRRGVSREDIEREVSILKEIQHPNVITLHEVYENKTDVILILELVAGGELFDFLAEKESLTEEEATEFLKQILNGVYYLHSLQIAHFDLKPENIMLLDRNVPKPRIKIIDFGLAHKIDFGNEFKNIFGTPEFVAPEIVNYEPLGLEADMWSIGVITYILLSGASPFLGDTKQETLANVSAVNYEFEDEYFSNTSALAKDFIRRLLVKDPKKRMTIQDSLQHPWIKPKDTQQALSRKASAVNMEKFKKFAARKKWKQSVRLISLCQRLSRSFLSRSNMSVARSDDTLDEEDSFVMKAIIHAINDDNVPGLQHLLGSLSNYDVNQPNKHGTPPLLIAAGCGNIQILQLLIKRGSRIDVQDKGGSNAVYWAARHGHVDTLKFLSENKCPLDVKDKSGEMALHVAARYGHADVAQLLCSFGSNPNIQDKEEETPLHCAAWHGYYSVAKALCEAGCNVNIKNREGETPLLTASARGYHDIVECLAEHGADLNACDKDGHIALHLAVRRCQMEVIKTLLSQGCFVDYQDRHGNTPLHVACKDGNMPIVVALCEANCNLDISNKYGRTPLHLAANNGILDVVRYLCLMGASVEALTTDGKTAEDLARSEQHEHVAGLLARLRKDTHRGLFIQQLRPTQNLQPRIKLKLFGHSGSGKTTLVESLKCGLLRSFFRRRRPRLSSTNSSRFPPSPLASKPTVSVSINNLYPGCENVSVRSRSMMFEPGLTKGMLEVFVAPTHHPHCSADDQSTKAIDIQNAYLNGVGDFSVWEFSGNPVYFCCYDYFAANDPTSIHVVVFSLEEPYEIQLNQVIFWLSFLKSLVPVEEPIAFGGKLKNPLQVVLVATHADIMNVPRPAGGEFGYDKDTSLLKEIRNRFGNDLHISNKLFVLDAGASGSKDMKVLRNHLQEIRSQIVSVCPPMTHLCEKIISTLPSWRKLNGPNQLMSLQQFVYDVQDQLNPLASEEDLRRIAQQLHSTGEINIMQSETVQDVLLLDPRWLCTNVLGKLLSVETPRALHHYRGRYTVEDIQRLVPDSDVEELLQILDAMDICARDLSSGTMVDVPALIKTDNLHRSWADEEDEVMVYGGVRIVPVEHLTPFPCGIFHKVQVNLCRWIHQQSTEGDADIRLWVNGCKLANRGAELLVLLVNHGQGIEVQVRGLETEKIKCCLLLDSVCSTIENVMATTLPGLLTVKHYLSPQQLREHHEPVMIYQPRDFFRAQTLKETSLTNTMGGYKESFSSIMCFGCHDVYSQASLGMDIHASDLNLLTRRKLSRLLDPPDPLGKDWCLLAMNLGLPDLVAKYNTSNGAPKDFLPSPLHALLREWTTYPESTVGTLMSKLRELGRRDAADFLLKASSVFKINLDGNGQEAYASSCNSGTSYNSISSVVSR
Chain of UniProt P54762 (whole entry, looked up): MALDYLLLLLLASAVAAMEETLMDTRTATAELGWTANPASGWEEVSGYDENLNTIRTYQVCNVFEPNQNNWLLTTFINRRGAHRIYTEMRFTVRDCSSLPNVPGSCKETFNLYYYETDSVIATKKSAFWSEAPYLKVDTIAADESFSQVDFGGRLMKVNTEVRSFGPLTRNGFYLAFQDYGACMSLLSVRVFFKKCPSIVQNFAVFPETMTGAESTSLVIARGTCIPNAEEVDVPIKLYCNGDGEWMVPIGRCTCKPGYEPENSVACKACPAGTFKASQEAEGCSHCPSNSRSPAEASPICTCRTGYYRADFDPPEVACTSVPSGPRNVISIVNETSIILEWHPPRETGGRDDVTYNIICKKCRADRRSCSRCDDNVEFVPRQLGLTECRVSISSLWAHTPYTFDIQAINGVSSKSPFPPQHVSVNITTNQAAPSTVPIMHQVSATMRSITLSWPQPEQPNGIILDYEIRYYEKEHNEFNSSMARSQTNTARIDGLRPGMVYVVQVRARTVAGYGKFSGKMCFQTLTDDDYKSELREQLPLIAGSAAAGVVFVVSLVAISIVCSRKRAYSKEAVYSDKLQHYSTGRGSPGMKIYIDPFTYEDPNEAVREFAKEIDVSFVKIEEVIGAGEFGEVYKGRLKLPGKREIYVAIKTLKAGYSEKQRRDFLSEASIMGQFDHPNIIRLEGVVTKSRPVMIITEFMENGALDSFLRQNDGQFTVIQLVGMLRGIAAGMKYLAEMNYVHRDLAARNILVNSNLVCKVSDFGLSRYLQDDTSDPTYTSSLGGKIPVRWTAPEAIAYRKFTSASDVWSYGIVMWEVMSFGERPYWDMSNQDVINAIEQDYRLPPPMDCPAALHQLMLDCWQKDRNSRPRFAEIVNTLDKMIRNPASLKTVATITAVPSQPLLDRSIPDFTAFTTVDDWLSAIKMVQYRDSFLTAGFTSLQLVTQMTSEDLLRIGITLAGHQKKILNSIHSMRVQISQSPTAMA

Block 1
SMILES: CCN1/C(=C/C=C2\CCCC(/C=C/C3=[N+](CC)c4ccccc4C3(C)C)=C2NCCCCCCCCN2CCC(Nc3nc4ccccc4n3Cc3ccc(F)cc3)CC2)C(C)(C)c2ccccc21
Cell line: U-87 MG
Concentration: concentration not given
Baseline: DMSO
measured: DNAJC1 mRNA — “log2 fold change”: 0.938.
The “log2 fold change” was -2.25 (measured: RCAN2 mRNA).
It gave -1.59 for “log2 fold change” (measured: PRSS23 mRNA).
It gave -1.58 for “log2 fold change” (measured: TMSB4X mRNA).
For measured: SLX4 mRNA: “log2 fold change” read -1.28.
The “log2 fold change” was -2.87 (measured: ENHO mRNA).
It gave -1.31 for “log2 fold change” (measured: EYA1 mRNA).
measured: RUBCNL mRNA — “log2 fold change”: 2.14.
It gave -1.41 for “log2 fold change” (measured: TENT5A mRNA).
It gave -0.923 for “log2 fold change” (measured: PFAS mRNA).
It gave 1.03 for “log2 fold change” (measured: ATG101 mRNA).
The “log2 fold change” was -0.857 (measured: SNRPE mRNA).
The “log2 fold change” was 1.02 (measured: ZFAND3 mRNA).
It gave 1.4 for “log2 fold change” (measured: AIFM2 mRNA).
For measured: TXNRD1 mRNA: “log2 fold change” read 1.73.
measured: ADCY7 mRNA — “log2 fold change”: 1.51.

Block 2
SMILES: CC[C@@]1(c2ccccc2)C2=C(CC(C)(C)CC2=O)Nc2n[nH]cc21
Concentration: 1 µM
For Macrophage colony-stimulating factor 1 receptor, autoinhibited (CSF1R, Homo sapiens, UniProt P07333); binding, competition with immobilised ligand: remaining binding read 100%.
For WNK1 (Homo sapiens, UniProt Q9H4A3); kinase binding, KINOMEscan; baseline: DMSO control: remaining binding read 100%.
It gave 100% for remaining binding (PAK1 (Homo sapiens, UniProt Q13153); binding, competition with immobilised ligand).
For DYRK1B (Homo sapiens, UniProt Q9Y463); binding, competition with immobilised ligand: remaining binding read 86%.
It gave 100% for remaining binding (DDR1 (Homo sapiens, UniProt Q08345); kinase binding, KINOMEscan; baseline: DMSO control).
For PKN1 (Homo sapiens, UniProt Q16512); binding, competition with immobilised ligand: remaining binding read 100%.
It gave 100% for remaining binding (PRKAA1 (Homo sapiens, UniProt Q13131); kinase binding, KINOMEscan; baseline: DMSO control).
For MAP3K12 (Homo sapiens, UniProt Q12852); kinase binding, KINOMEscan; baseline: DMSO control: remaining binding read 100%.
BMP2K (Homo sapiens, UniProt Q9NSY1); binding, competition with immobilised ligand — remaining binding: 58%.
It gave 100% for remaining binding (PAK3 (Homo sapiens, UniProt O75914); binding, competition with immobilised ligand).
PIP5K1A (Homo sapiens, UniProt Q99755); kinase binding, KINOMEscan; baseline: DMSO control — remaining binding: 98%.
It gave 100% for remaining binding (PIKFYVE (Homo sapiens, UniProt Q9Y2I7); kinase binding, KINOMEscan; baseline: DMSO control).
For MAP3K15 (Homo sapiens, UniProt Q6ZN16); binding, competition with immobilised ligand: remaining binding read 85%.
CDKL2 (Homo sapiens, UniProt Q92772); binding, competition with immobilised ligand — remaining binding: 100%.
The remaining binding was 98% (TEC (Homo sapiens, UniProt P42680); binding, competition with immobilised ligand).
The remaining binding was 91% (ROCK1 (Homo sapiens, UniProt Q13464); kinase binding, KINOMEscan; baseline: DMSO control).
It gave 93% for remaining binding (CAMK1G (Homo sapiens, UniProt Q96NX5); binding, competition with immobilised ligand).
The remaining binding was 100% (EPHB1 (Homo sapiens, UniProt P54762); binding, competition with immobilised ligand).

Block 3
Structure (SMILES): CNc1ncc2cc(-c3cc(OC)cc(OC)c3Cl)c(=O)n(CCc3ccc(NC(=O)C(C#N)=CC(C)(C)N4CCOCC4)cc3)c2n1
Read-out: kinase activity
PTK6: Protein-tyrosine kinase 6 (PTK6, Homo sapiens, UniProt Q13882)
Chain of UniProt Q13882 (whole entry, looked up): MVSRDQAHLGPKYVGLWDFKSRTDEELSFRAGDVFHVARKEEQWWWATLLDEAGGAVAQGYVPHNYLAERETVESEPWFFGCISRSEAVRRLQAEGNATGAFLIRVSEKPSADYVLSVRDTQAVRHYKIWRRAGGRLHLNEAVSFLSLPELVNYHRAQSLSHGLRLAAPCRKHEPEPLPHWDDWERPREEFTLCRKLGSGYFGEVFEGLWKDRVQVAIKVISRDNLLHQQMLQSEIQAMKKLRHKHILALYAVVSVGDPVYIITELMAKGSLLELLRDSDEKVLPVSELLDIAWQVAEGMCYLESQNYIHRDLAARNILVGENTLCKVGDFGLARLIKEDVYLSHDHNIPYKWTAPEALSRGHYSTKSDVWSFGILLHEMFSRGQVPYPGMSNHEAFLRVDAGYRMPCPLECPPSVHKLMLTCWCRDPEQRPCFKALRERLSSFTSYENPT
DAPK1 (Homo sapiens, UniProt P53355); 1 µM — inhibition: 0%.
It gave 2% for inhibition (EGFR (Homo sapiens, UniProt P00533); 0.1 µM).
For NEK6 (Homo sapiens, UniProt Q9HC98); 0.1 µM: inhibition read 0%.
It gave -8% for inhibition (PTK6; 0.1 µM).
PTK6; 1 µM — inhibition: 0%.
LTK (Homo sapiens, UniProt P29376); 1 µM — inhibition: 1%.
For HIPK2 (Homo sapiens, UniProt Q9H2X6); 0.1 µM: inhibition read -5%.
HCK (Homo sapiens, UniProt P08631); 1 µM — inhibition: 5%.
TSSK2 (Homo sapiens, UniProt Q96PF2); 1 µM — inhibition: 5%.
TYK2 (Homo sapiens, UniProt P29597); 0.1 µM — inhibition: 0%.
It gave 4% for inhibition (MUSK (Homo sapiens, UniProt O15146); 0.1 µM).
It gave -2% for inhibition (MERTK (Homo sapiens, UniProt Q12866); 1 µM).

Block 4
SMILES: C[C@@H]1CN(c2ccc(-c3cc(C(=O)NCCOCCOCCOCCOCCOCCOCCNC(=O)/C=C/c4[nH]cc(C(=O)N[C@@H](CC(N)=O)c5ccc(F)c(Cl)c5)c4-c4ccc(Cl)cc4F)ccc3F)cc2NC(=O)c2ccc(F)cc2C(F)(F)F)C[C@H](C)N1C
Read-out: thermal unfolding
Method: differential scanning fluorimetry
Concentration: 5.5 µM
Direction: higher = more unfolded
WDR5: WD repeat-containing protein 5 (WDR5, Homo sapiens, UniProt P61964)
DCAF1: DDB1- and CUL4-associated factor 1 (DCAF1, Homo sapiens, UniProt Q9Y4B6)
Chain of UniProt Q9Y4B6 (whole entry, looked up): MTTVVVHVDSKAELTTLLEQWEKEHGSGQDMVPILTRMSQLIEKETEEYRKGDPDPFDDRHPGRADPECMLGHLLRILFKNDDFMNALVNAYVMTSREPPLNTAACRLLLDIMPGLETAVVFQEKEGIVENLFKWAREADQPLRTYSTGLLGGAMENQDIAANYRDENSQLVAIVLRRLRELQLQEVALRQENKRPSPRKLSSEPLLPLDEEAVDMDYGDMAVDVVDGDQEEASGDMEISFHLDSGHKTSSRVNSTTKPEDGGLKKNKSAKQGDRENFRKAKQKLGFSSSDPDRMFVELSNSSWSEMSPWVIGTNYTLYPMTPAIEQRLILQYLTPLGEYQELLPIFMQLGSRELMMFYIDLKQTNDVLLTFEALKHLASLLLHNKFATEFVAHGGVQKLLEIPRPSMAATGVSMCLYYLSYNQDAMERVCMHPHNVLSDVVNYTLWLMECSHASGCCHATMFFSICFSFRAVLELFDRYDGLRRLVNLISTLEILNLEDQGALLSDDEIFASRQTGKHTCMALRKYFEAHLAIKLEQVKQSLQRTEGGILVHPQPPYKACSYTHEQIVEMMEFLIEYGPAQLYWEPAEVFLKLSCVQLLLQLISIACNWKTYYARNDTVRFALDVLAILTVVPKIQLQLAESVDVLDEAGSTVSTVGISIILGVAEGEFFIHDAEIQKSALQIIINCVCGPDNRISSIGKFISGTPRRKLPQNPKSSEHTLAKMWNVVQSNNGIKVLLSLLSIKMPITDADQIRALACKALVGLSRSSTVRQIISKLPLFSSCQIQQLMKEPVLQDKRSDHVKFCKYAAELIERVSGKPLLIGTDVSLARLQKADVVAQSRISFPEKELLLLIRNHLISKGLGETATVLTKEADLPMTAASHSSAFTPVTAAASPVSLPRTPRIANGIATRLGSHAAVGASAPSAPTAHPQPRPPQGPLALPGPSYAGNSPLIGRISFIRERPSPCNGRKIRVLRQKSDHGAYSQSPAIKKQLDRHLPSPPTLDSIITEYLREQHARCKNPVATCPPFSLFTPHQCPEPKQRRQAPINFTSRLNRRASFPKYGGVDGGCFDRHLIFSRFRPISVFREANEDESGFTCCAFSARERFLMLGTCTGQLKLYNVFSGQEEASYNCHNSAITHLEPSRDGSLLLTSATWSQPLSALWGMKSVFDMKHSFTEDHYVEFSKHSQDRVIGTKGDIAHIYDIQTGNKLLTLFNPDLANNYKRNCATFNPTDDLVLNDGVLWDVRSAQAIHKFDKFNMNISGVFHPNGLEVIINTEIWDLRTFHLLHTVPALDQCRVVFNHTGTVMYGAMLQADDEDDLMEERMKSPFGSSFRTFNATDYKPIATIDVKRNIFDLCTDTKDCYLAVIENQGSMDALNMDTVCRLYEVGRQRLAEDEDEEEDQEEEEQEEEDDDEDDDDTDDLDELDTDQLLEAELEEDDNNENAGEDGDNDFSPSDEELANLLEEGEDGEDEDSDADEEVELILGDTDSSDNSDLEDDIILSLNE
For WDR5; 52.2 °C: “SYPRO Orange fluorescence” read 16600 a.u.
The “SYPRO Orange fluorescence” was 15300 a.u. (WDR5; 47.4 °C).
It gave 17800 a.u. for “SYPRO Orange fluorescence” (WDR5; 66.21 °C).
The “SYPRO Orange fluorescence” was 53700 a.u. (DCAF1; 62.81 °C).
It gave 37000 a.u. for “SYPRO Orange fluorescence” (DCAF1; 83.81 °C).
The “SYPRO Orange fluorescence” was 39300 a.u. (DCAF1; 81.01 °C).
For WDR5; 48.4 °C: “SYPRO Orange fluorescence” read 15700 a.u.
The “SYPRO Orange fluorescence” was 15900 a.u. (WDR5; 57.21 °C).
WDR5; 70.21 °C — “SYPRO Orange fluorescence”: 28100 a.u.
It gave 49700 a.u. for “SYPRO Orange fluorescence” (DCAF1; 68.61 °C).
DCAF1; 44.8 °C — “SYPRO Orange fluorescence”: 14500 a.u.

Excerpt of the above (block 1):
The “log2 fold change” was -2.87 (measured: ENHO mRNA).
It gave 1.4 for “log2 fold change” (measured: AIFM2 mRNA).
The “log2 fold change” was -2.25 (measured: RCAN2 mRNA).
It gave -1.31 for “log2 fold change” (measured: EYA1 mRNA).
It gave -1.58 for “log2 fold change” (measured: TMSB4X mRNA).
For measured: TXNRD1 mRNA: “log2 fold change” read 1.73.
It gave -0.923 for “log2 fold change” (measured: PFAS mRNA).
measured: RUBCNL mRNA — “log2 fold change”: 2.14.
The “log2 fold change” was 1.02 (measured: ZFAND3 mRNA).
